# Measured values from different studies.
# Numbered parts are unrelated; each lists some results of a single study.

# Sample 1
# Target: Prothrombin, mature alpha-thrombin (F2, Homo sapiens, UniProt P00734)
# Technique: aptamer microarray, sandwich
# Form: DNA with 2'F-ANA
# Matrix: in vitro
# Tested at: 200 nM
# Notes: whole 15-mer aptamer, many near background
# Added: Cy3 exosite-II aptamer, 400 nM
# Direction: higher = stronger binding
# Sequence: GGTTGGTGTGGTTGG
Modification,mean fluorescence intensity [a.u.]
2'F-ANA at 1 5 6 7 8 11 12 13 14,67.6
2'F-ANA at 1 4 6 8 9 10 13 15,94
2'F-ANA at 1 2 3 5 6 8 10 11 14 15,76.8
2'F-ANA at 1 4 6 7 9 10 11,50.3
2'F-ANA at 1 2 4 5 7 8 9 11 13,48.8
2'F-ANA at 1 6 7 9 11 12 13,205
2'F-ANA at 2 3 4 5 7 8 9 12 13 14 15,77.7
2'F-ANA at 2 3 7 8 9 12 13 14 15,458
2'F-ANA at 1 4 9 14 15,48.7
2'F-ANA at 2 5 9 10 11 12 13 14 15,53.4
2'F-ANA at 1 6 7 8 9 12 15,392
2'F-ANA at 1 4 6 7 10 13,47.9
2'F-ANA at 1 2 3 4 5 6 10 12 14,48.3
2'F-ANA at 1 3 6 8 9 10 11 12 13,106
2'F-ANA at 2 6 9 12 13 14 15,143
2'F-ANA at 1 3 4 5 7 10 11 13 15,49.5

# Sample 2
# Target: Fragile X messenger ribonucleoprotein 1, C-terminal low-complexity region (Fmr1, Mus musculus, UniProt P35922)
# Technique: RNA Bind-n-Seq
# Form: RNA
# Matrix: in vitro
# Tested at: 200 nM
# Notes: whole 134-nt RNA, ends assumed
# Added: 150 mM LiCl
# Baseline: input library
# Direction: higher = stronger binding
# All molecules: 7-deaza-guanosine replaces G
# Shared flanks, not repeated: GGGAGUUCUACAGUCCGACGAUC … UGGAAUUCUCGGGUGUCAAGG
Sequence,log2 enrichment
GUCCUGUGCUACACAUCGUAUGUACCGAAUCGGGAAAAAGGGUUUGGGAAAAAAAGGGAAAGUAUUAUGUUACGCCGUUCGGAUCUGCAC,-2.33
UAACUUUAGAGGAGGAUCUGAUGGAUAUGGCAGUGGACGUGGAUUUGGGGAUGGCUAUAAGGGGUAUGGAGGAGGACCUGGAGGUGGCAA,0.484
CCUCAAGUCCUGUGCUACACAUCGUAUGUACCGAAUCGGCGGGGCGGGCGGGGAAAGUAUUAUGUUACGCCGUUCGGAUCUGCACUUCCA,-0.7
AGUCCUGUGCUACACAUCGUAUGUACCGAAUCGGUUUUUGGUUUUUGGGUUUUUGGGGAAAGUAUUAUGUUACGCCGUUCGGAUCUGCAC,-0.866
UUCCCUGUACCGGCAGAGUUCACAAACACAUUUGAAGAGGCUUUUUCUCAGGAUUCUUAACCUUCCCAAAGGAAGUCCCAUGGAUGGGUU,-1.57
CAAGUCCUGUGCUACACAUCGUAUGUACCGAAUCGGGGUGGGGAGGGGUUUGGGGAAAGUAUUAUGUUACGCCGUUCGGAUCUGCACUUC,-0.293
CCUGUGCUACACAUCGUAUGUACCGAAUCGGAAAAAAAGGAAAAAAAGGGGAAAAAAAGGGAAAGUAUUAUGUUACGCCGUUCGGAUCUG,-0.697
GUCCUGUGCUACACAUCGUAUGUACCGAAUCGGGUUUUUGGGGUUUUUGGUUUUUGGGGAAAGUAUUAUGUUACGCCGUUCGGAUCUGCA,-1.61
UCAAGUCCUGUGCUACACAUCGUAUGUACCGAAUCGGGGCCCGGGCCCGGCCCGGAAAGUAUUAUGUUACGCCGUUCGGAUCUGCACUUC,-1.28
UCAAGUCCUGUGCUACACAUCGUAUGUACCGAAUCGGGUUUUUGGGUGGGAGGGAAAGUAUUAUGUUACGCCGUUCGGAUCUGCACUUCC,-1.56
CUCAAGUCCUGUGCUACACAUCGUAUGUACCGAAUCGGGUUGGUUGGGUUGGGGAAAGUAUUAUGUUACGCCGUUCGGAUCUGCACUUCC,-1.06

# Sample 3
# Target: RNA binding protein fox-1 homolog 2, RRM domain, GST-SBP tag (RBFOX2, Homo sapiens, UniProt O43251-10, residues 100-194)
# Technique: RNA Bind-n-Seq
# Form: RNA
# Matrix: in vitro
# Tested at: 365 nM
# Notes: natural RNA segment, single round, ends assumed
# Baseline: no-protein control
# Direction: higher = stronger binding
# Shared flanks, not repeated: GGGAGUUCUACAGUCCGACGAUC … UGGAAUUCUCGGGUGCCAA
# Construct (chain): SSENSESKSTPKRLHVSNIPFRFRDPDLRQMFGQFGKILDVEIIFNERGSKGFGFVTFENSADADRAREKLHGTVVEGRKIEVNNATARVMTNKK
Sequence,RBNS enrichment (R)
AGGAGACAGAAGAGUUCUGAUGAUAGAUCUCUGCCUCAGUCUGUUGGCUGGCCUAAUCCCCAUGAUGAUUCCAGAAUAAUCUUGCAAAUUGGAUCAUGGCAGGUGCUUGU,0.961
GUUGGAUAUUCAAUAUUAUGAAUAUUAAAAAGGGGGCAAUAAAAGGGUAUGUAAAAUAUGUAUGAAGAAAAGGUGUAUAAAAAUUUGCCCUUAUGCACGGAACUGUUUCU,2.27
UCUGGGACUCCUGUCUAGGUGCCCCUGAUGACGGGAUGCUCUUUAAAUAAUAAAGAUGGUUUUGAUUAAUGUGGCCUCCGAGCUUACAAAUGUACACAGCAAUGAGGACA,0.495
UCCUCACCGAGCAUGCUUCCCUAGGAUCCCGUCUUCCAGAGAACCUGUGGGCUGACUGCCCUCCGAAGAGAGUUCUGGAUGUCUGGCUCAAAGCAGCAGGACUGUGGGAA,1.48
GAACCCCUGGACUUGCCAGGUGCCUGAGCAUCUUCCCAGGAUAUGCCUGCCAGCCAGCAGCCCCUCAGGAAUGCUUCUAUAAUAGAUCCAGUAAUGAAAGCAGCACCAUA,0.76
UGCCUCCUAGAGAAAACACUGCCUGGACUGUUCUGUGCAUCCCUCCAAACAGCAUCAUCCAAAUCCAACUGAGGACAGACGGACUGUCCCGGCCUGGGCCUGGGCUCCUA,1.73
AGGACCCAGAGCAGGCCUGUCCAUGCCAUUCCUUCGCACAGAUGAAACUGAGCUGGGACUGGAAAGGACAGCCCUUGACCUGGGUUCUGGGUAUAAUUUGCACUUUUGAG,0.895
CUGAUACUCCUUGGAGACACCCUCUUUGGCCCUCACUACUUGACCAGACUGGUACUUGAGUCCUUCUCAUGGGUGGGGUGAUUGCCUCUUCUCAUCAGGAGCCAGGAGAG,0.418
CUGCACAUGGAACUGCAGGGCAGGCUGGCGGGGGGCCUUCAGAUCUCAGAUGAGACUGCACCCCUUCGACCACCCUACUGGGCACCUGCCUCCAGCCCCUGAGAACUCCA,0.254
GAAGUGACAGUCAUGUUCAAAGGAAGCAUUUCUAGAAAAAAGGAGAUAAUGUUUUUAAAUUUCAUUAUCAAACUUGGGCAAUUCUGUUUGUGUAACUCCCCGACUAGUGG,0.531
UCCUUGAGUUUUCCUGCUGCGAUGCAAUGCUUUUCUAAUCUGCAGUGGCUCUUACAAAACUCUGUUCCCACUCCCUCUCUUGCCGACAAGGGCAACUCACGGGUGCAUGA,4.41
AGAAAAAACCCGUUUUCAAUUCUAAUGAAACAGCAACAACAUUUUUUUUAAUUAAAAAAAAAAUCAUGUUCUUUGUUUUUCUAAUAAAAUGUUAGGUUGUUUGGUGAGGU,0.673

# Sample 4
# Target: RING finger protein unkempt homolog, zinc fingers 1-6, SBP tag (UNK, Homo sapiens, UniProt Q9C0B0, residues 30-357)
# Sequence of UniProt Q9C0B0 (30-357, looked up): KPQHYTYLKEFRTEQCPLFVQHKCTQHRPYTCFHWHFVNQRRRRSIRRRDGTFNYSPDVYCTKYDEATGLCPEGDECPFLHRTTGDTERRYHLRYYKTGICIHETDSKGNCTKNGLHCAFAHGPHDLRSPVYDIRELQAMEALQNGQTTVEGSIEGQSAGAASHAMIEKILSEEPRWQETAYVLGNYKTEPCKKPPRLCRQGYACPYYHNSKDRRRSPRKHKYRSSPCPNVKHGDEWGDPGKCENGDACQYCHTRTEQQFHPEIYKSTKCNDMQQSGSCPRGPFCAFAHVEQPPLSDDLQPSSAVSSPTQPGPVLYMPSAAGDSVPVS
# Technique: RNA Bind-n-Seq
# Form: RNA
# Matrix: in vitro
# Tested at: 100 nM
# Notes: RNA with constant flanks, ends assumed
# Baseline: input RNA pool
# Direction: higher = stronger binding
Sequence,bound/input enrichment [ratio]
GGGAGUUCUACAGUCCGACGAUCUCUAUACAAUUUUAAAAAUACUUCCUCACCGGAUGCUUUGGCCCUUCAUCUAUUUAAUCACCGCUACAUACCUAUUUUUUAUAAGCCGCAGUACACAUUCAAAGGGGUAUUCCCCGCUCACAACAGAGGAUUGAGCAUCA,2.86
GGGAGUUCUACAGUCCGACGAUCGUCAUCUGACUGGAUGAAGACUGUUCCAAGUUACAACCAAACAAACCGCUCCAUGGACUUCCGAAAUUAUAUGAUGAGAGAUGAGACUCUGGAACCACUGCCCAAAAACUGGGAAAUGGCCAACAGAGGAUUGAGCAUCA,0.491
GGGAGUUCUACAGUCCGACGAUCGCAAUGAAAAAGCAGCCCUUCUCCCAGCCCCCUUUUCACCCGGAGACACAAACAUUACAACCGAAGAGCAAUUAAACUCAAUAAAUUUAUCUUUUCAGGAUGAUCCAGAUUCCAGUACCACAACAGAGGAUUGAGCAUCA,0.544

# Sample 5
# Target: Interferon regulatory factor 5, full length, phosphomimetic (IRF5, Homo sapiens, UniProt Q13568-2, residues 1-514, S451D/S453D/S456D/S462D)
# Technique: protein-binding microarray
# Form: double-stranded DNA, one strand shown
# Matrix: in vitro
# Tested at: 940 nM top
# Notes: 60-bp whole probe
# Added: salmon DNA 0.4 mg/ml
# Baseline: random background probes
# Direction: higher = stronger binding
# Shared flanks, not repeated: GCCTAGCAC … GTCTTGATTCGCTTGACGCTGCTG
Sequence,fitted relative affinity [z-score]
GACGGAATCGGTATCGGGACGTGCTAG,1.77
ACAGAACTCAACTGTCTGCCTGTGCTA,0.0461
GACAGACTGGGGTTTCGGGACGTGCTA,1.84
TTAGAACTAAGACTGGATTAGTGCTAG,-0.499
TTAGGTTTCGGTATCGGTTCGTGCTAG,15.7
TCGTTTCCCAAGTTTATACCTGTGCTA,1.19
GACGGTTTCTTTTTCCTGACGTGCTAG,3.21
TTAGGACTGGACTATCGGCTAGTGCTA,-0.422
GACGGTATCGACACTTGGGACGTGCTA,3.04
TTAGGTATCCTTGTCCTTTAGTGCTAG,0.205
TTAGATTCTAGTTTCGATTAGTGCTAG,9.25
GACGGTATCGACTTTCGGGAAGTGCTA,4.77
TTAGGTATCGGACTGGGTTTGTGCTAG,3.45
GACGAACTGAGAATCGAGACGTGCTAG,-0.161
GACGGTATCGACTATCGGGAAGTGCTA,5.12
TCTCTTCTGCTTCCTCAGGACGTGCTA,2.59
GACGGTCTCGGTCTCGGGGCGTGCTAG,3.68
TTAGGTATCCTCCTGCTTTAGTGCTAG,0.2
ATAGGACTGGACACTGGGTTAGTGCTA,-0.0684

# Sample 6
# Target: Transcriptional repressor CTCF (CTCF, Homo sapiens, UniProt P49711, residues 1-727, full length assumed)
# Technique: protein-binding microarray
# Form: double-stranded DNA, one strand shown
# Matrix: in vitro
# Tested at: not given
# Notes: k-mer, scored over probes, only values ≥0.25
# Direction: higher = stronger binding
# Construct (chain): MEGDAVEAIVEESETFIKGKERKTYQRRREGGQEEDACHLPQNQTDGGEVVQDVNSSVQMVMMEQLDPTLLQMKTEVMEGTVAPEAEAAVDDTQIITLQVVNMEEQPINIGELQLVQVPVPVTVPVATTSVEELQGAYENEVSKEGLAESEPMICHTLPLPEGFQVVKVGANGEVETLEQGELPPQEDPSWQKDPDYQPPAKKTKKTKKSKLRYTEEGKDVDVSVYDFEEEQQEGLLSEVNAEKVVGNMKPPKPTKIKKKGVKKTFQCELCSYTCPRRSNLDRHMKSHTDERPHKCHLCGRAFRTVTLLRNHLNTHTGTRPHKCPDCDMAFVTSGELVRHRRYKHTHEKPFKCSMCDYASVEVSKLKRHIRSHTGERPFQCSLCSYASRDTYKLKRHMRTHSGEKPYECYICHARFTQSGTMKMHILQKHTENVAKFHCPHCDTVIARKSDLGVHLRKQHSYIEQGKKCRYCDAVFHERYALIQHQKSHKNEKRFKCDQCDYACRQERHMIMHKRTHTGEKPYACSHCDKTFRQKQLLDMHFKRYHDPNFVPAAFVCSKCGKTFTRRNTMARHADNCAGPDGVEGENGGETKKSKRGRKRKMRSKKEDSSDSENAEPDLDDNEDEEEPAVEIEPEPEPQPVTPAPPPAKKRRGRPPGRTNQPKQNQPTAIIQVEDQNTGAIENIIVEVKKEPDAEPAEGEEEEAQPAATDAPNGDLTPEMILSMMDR
Sequence,E-score
TAACACTA,0.302
ACTTACAC,0.262
ACAGCGCC,0.387
TGGTGTAA,0.264
GTATTGCA,0.288
CATATATG,0.341
ACGTATAT,0.327
GTTTATTA,0.252
CACAATTA,0.281
GCGGCGCA,0.336
ATATATAC,0.332
CCCGCGCG,0.257
AATAAGTA,0.318
GTGCGCAC,0.363
CTGATAAA,0.294
ATAAAGTA,0.293
AAGCGCCA,0.331
ATTACATG,0.306
ATGCGCTG,0.27
TGTATACA,0.365
ATAATATC,0.268
ACATATAC,0.302
GCCAAATA,0.256
GTAATATA,0.371
TATAAATA,0.306

# Some of these lines once more (sample 1):
Modification,mean fluorescence intensity [a.u.]
2'F-ANA at 1 2 4 5 7 8 9 11 13,48.8
2'F-ANA at 1 6 7 9 11 12 13,205
2'F-ANA at 2 3 4 5 7 8 9 12 13 14 15,77.7
2'F-ANA at 2 3 7 8 9 12 13 14 15,458
2'F-ANA at 1 4 9 14 15,48.7
2'F-ANA at 2 5 9 10 11 12 13 14 15,53.4
2'F-ANA at 1 6 7 8 9 12 15,392
2'F-ANA at 1 4 6 7 10 13,47.9
2'F-ANA at 1 2 3 4 5 6 10 12 14,48.3
2'F-ANA at 1 3 6 8 9 10 11 12 13,106
2'F-ANA at 2 6 9 12 13 14 15,143
